# Assay results gathered from unrelated publications.
# Each line is one published result; not all experiments were run side by side.
SMILES,test,system,setting,measurement,value
C=CC(=O)N1CC[C@H](n2nc(C#Cc3cc(OC)cc(OC)c3)c3c(N)ncnc32)C1,measured: blood creatinine increased,hyperphosphataemia patients,"oral, once daily, any grade, sevelamer users",patients with ADR,13.6%
CCN(CCO)CCCC(C)Nc1ccnc2cc(Cl)ccc12 (centres unmarked),measured: Anorexia grade 3,newly diagnosed glioblastoma patients,"oral, 400 mg/dose, with radiotherapy and temozolomide",patients with adverse event,14%
C=CCNc1c(O)cc2c(O)c1C[C@@H](C)C[C@H](OC)[C@H](O)[C@@H](C)/C=C(\C)[C@H](OC(N)=O)[C@@H](OC)/C=C\C=C(/C)C(=O)N2,,unresectable or metastatic sarcoma,"intravenous, 400 mg/m^2, grade 3-4 lab change",patients with ALP increase,3%
O=C1Nc2cc3[nH]nc(-c4ccncc4)c3cc2CN1Cc1ccccc1,CTCAE v4.03,advanced solid tumour patients,"intravenous, 3.6 mg/kg, schedules 1/2",patients with fatigue,67%
Cn1cc(-c2nc(N[C@@H]3CCCC[C@@H]3N)c(F)c3c2C(=O)NC3)cn1,,relapsed/refractory AML patients,"oral, dose not given, phase Ib trial, all doses",patients with subdural haematoma,7%
COc1nnc2ccc(N3CCC(c4ccc(OCCN5CCN(C)C(=O)[C@H]5C)cc4)CC3)nn12,measured: anemia,patients with solid tumours or lymphoma,"oral, dose not given, grade at least 3, treatment-emergent",patients with adverse event,8.8%
COc1cc2c(Oc3ccc4[nH]c(C)cc4c3F)ccnc2cc1OCC1(N)CC1,,paediatric refractory sarcoma patients,8 mg/kg,patients with grade 3 Triglyceride elevation,0%
Nc1nc2cc(-c3ccc4ncc(C(=O)N5CCOCC5)n4c3)ccc2o1,measured: Cough,advanced solid tumour patients,"dose not given, all grades, all doses",patients with adverse event,20%
CC(=O)c1c(C)c2cnc(Nc3ccc(C4CCN(CCS(C)(=O)=O)CC4)cn3)nc2n(C2CCCC2)c1=O,,HR+/HER2- advanced breast cancer patients,"oral, 100 mg",patients with TEAE grade ≥3,100%
N[C@@H]1c2ccccc2OC12CCN(c1cnc3c(N4CCCc5ncccc54)n[nH]c3n1)CC2,,advanced solid tumour patients,"oral, 60 mg once daily",patients with fatal TEAE,0%
COc1c(C)cnc(Cn2cc(C#CCCOP(=O)(O)O)c3c(Cl)nc(N)nc32)c1C,,"patients, advanced solid tumours","dose not given, all doses",patients with headache,12%
CN1CC[C@@H](c2c(O)cc(O)c3c(=O)cc(-c4ccc(C(F)(F)F)cc4Cl)oc23)[C@@H]1CO,measured: Anemia,AML,"oral, 100 mg, intermittent dosing",patients with adverse event,33.3%
CCNCCCNC/C=C\CNCCCNCC,,advanced refractory solid tumour patients,"intravenous, dose not given, Gastrointestinal disorders",patients with drug-related TEAEs,45.7%
COc1ccc(-c2c(-c3ccc(C#N)c(F)c3)nc(N3CCC(N)CC3)n(C)c2=O)cc1F,measured: conjunctival hemorrhage,neuroendocrine neoplasm patients,"oral, 60 mg, dose expansion",patients with TRAE any grade,0%
